Measured values pooled from the literature.
Every numbered part comes from another study and shows a few of its results, in no order. Changes are numbered by the printed parent chain.

Set 1 — target: CCND2, cyclin fold, Cln2 fusion (human); method: yeast growth competition, sequencing; matrix: yeast; notes: weak parent motif; baseline: not given; reading: higher = stronger binding
Starting sequence: PKMYT1 docking peptide (human); SFEPRNLLSLFED
For `SFIPRNLLSLFED [E3I]`, “normalised enrichment score” read -0.147.
Under “normalised enrichment score”, `SFEPRNLLSLIED [F11I]` is recorded as 0.0909.
Under “normalised enrichment score”, `SFEPRNLLSQFED [L10Q]` is recorded as 0.135.
For `SFEPRNKLSLFED [L7K]`, “normalised enrichment score” read -0.498.
`SFEPRNLVSLFED [L8V]` — result for “normalised enrichment score”: -0.325.
For `SFEPRNLLSLAED [F11A]`, “normalised enrichment score” read 0.451.
Under “normalised enrichment score”, `SCEPRNLLSLFED [F2C]` is recorded as 0.142.
For `SFEPRNLLMLFED [S9M]`, “normalised enrichment score” read 0.115.
`SFEPRNLLSLYED [F11Y]` — result for “normalised enrichment score”: -0.0187.
Under “normalised enrichment score”, `SFEPYNLLSLFED [R5Y]` is recorded as 0.325.
`SFEPENLLSLFED [R5E]`: “normalised enrichment score” 0.241.
For `SFEPRNLESLFED [L8E]`, “normalised enrichment score” read -2.11.
Under “normalised enrichment score”, `PFEPRNLLSLFED [S1P]` is recorded as 0.407.
`SFEPRNLLLLFED [S9L]`: “normalised enrichment score” 0.216.
Under “normalised enrichment score”, `SFDPRNLLSLFED [E3D]` is recorded as 0.191.
`SFEPRNLLSLFEL [D13L]` — result for “normalised enrichment score”: 0.032.
For `MFEPRNLLSLFED [S1M]`, “normalised enrichment score” read 0.171.
`SNEPRNLLSLFED [F2N]` — result for “normalised enrichment score”: -0.227.
For `SFEPRNLLSLWED [F11W]`, “normalised enrichment score” read 0.525.
Under “normalised enrichment score”, `SHEPRNLLSLFED [F2H]` is recorded as 0.193.
`VFEPRNLLSLFED [S1V]`: “normalised enrichment score” 0.37.
Under “normalised enrichment score”, `SFEPRNLLSLFQD [E12Q]` is recorded as -0.0269.
For `SFEPRNLLELFED [S9E]`, “normalised enrichment score” read 0.00211.
For `SFEPRNLLSLFEQ [D13Q]`, “normalised enrichment score” read -0.177.
`SFEPRNLLSSFED [L10S]` — result for “normalised enrichment score”: -0.343.

Set 2 — target: JUN, bZIP domain (human); method: DHFR protein complementation; matrix: yeast; baseline: wild-type JUN-FOS pair; reading: higher = stronger binding
Notes: single substitutions, most at no-binding floor
Starting sequence: JUN, bZIP domain (human); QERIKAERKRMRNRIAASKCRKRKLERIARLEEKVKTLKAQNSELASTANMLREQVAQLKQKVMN; partner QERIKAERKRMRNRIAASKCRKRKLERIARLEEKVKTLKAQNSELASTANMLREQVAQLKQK
For `Q55M`, the binding fitness was -0.337 natural log.
`E32D` gave a binding fitness of -0.852 natural log.
`A57N` has a binding fitness of -0.192 natural log.
`S43A` has a binding fitness of 0.00779 natural log.
For `A40N`, the binding fitness was -0.369 natural log.
`A40V` gave a binding fitness of -0.34 natural log.
With `M51Y` the binding fitness was -0.205 natural log.
With `K39H` the binding fitness was -0.328 natural log.
With `E33K` the binding fitness was -0.351 natural log.
For `E32N`, the binding fitness was -0.677 natural log.
The binding fitness of `S43W` is reported as -0.464 natural log.
The binding fitness of `A57C` is reported as -0.566 natural log.
`Q55F` gave a binding fitness of -1.18 natural log.
The binding fitness of `L38C` is reported as -1.04 natural log.
`E44R` has a binding fitness of -0.448 natural log.

Set 3 — method: protein binding microarray; molecule type: double-stranded DNA, one strand shown; matrix: in vitro; concentration: not given; baseline: not given; reading: higher = stronger binding
Target: Histone acetyltransferase KAT6A, winged helix 2, GST fusion (KAT6A, Homo sapiens, UniProt Q92794, residues 85-181)
Notes: 8-mer, flanks averaged, mean of 2 arrays, mostly near background
Target sequence (chain): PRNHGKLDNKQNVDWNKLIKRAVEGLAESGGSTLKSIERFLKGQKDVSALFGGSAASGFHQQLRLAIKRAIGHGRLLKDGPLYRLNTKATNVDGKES
`CGGAGCTA` gave an E-score of -0.0295.
For `CTCTATAC`, the E-score was -0.0758.
With `AAGATGGC` the E-score was 0.0763.
`AAGATTTG` gave an E-score of -0.0617.
With `ATGTTCTG` the E-score was -0.0224.
For `AGCACTGA`, the E-score was 0.00246.
The E-score of `ACTCCCGG` is reported as 0.0381.
The E-score of `ACTAGAAG` is reported as -0.0237.
The E-score of `CCATGCAA` is reported as 0.09.
`ATGGACGA` gave an E-score of 0.111.
With `CCGCACCA` the E-score was 0.184.
The E-score of `AAGTCACT` is reported as -0.197.
The E-score of `ACTAACAA` is reported as -0.118.
With `ATCGGAAG` the E-score was -0.0462.
`GTCGACAC` gave an E-score of 0.00766.
`AAATATAT` has an E-score of 0.105.
With `CCAACTAG` the E-score was 0.0571.
With `TACCGAGA` the E-score was -0.106.
`CTGCCTAA` has an E-score of 0.0293.
`ATCTAGGG` has an E-score of -0.198.
With `GGATCCAC` the E-score was -0.115.
For `GTTAATAA`, the E-score was 0.14.
The E-score of `GTGCGCTA` is reported as -0.102.
For `TCGAAACA`, the E-score was 0.2.
With `CATCCGCA` the E-score was 0.0963.

Set 4 — method: RNA Bind-n-Seq; molecule type: RNA; matrix: in vitro; concentration: 365 nM; baseline: no-protein control; reading: higher = stronger binding
Target: RNA binding protein fox-1 homolog 2, RRM domain, GST-SBP tag (RBFOX2, Homo sapiens, UniProt O43251-10, residues 100-194)
Notes: natural RNA segment, single round, ends assumed
Construct (chain): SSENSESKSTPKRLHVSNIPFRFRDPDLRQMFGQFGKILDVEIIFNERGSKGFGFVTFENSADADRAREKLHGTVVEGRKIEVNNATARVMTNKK
Under “RBNS enrichment (R)”, `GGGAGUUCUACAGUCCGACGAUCCCUGCCCAGACAAAGCCCCGCCUUCCCCAAAGCAGAGGGGCUGUCUGUGUCUCCAGAAAGGGGACAUCGGGGGGGAGGGGGGCUCAGAAAGGAGAAGGGCUGUGAUCUCCUGGAAUUCUCGGGUGCCAA` is recorded as 0.641.
`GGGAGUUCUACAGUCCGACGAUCAGGUUGGGUGCAUUGUCAGUAAAAAGGGCUUAUUUGUUUCAUUUUACUUUCCUGCAAAAUUUUCUUCAAAGCAACAAGUCCUAGGAGCACACAAAGCAACCCAAAGGCUUUGGAAUUCUCGGGUGCCAA` — result for “RBNS enrichment (R)”: 0.341.
`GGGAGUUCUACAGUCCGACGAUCCUAUUUACUGGGCGGUAAAAGGGGUUUACCUCUCACCUUUGGUCAUUCCUAAGUUCCUAUCUCCUUCACACUGUACCUAGGGUGAUGGUUUCGGUCAGGCCAUCUCCAGCUGGAAUUCUCGGGUGCCAA`: “RBNS enrichment (R)” 0.387.
Under “RBNS enrichment (R)”, `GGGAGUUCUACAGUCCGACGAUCGACGUCAACGGAGGAACCUCGGUUCUUCAACACAAGCUUUGUAUGUAAGCCGAGAGAAAAGUCAUGUAUAUCAGGCCUAGGUCUUGACACUUAAUUUUCUAUUGUAAAAAUGGAAUUCUCGGGUGCCAA` is recorded as 0.379.
`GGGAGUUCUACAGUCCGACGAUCCGGUUGUAGCGGAGUGGGCUGAACACUGUAACACUGUACAUGCGAUUUCCCCAUGGGCUUCUAAAAUGUCACCAUCUCCUCCCCUGCUGUGUCCUACUCCAUUUACUGGUUGGAAUUCUCGGGUGCCAA` — result for “RBNS enrichment (R)”: 0.4.
`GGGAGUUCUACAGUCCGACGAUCAAAACCUUAGGGCAGUGUCUACAUGGGAAACAAGUAUGUGGAAAUUGACAAUCAUUUUUACCAAAUCGUUGAGUAAUAAUAUGACUUACCUGAUAGAUAUACACAUUCAAUGGAAUUCUCGGGUGCCAA`: “RBNS enrichment (R)” 0.366.
For `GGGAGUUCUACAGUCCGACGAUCUUCUGAACUACACUGCAUUGUUGUGCCGAGAACACCGAGCACUGAACUUUGCAAAGACCUUCGUCUUUGAGAAGACGGUAGCUUCUGCAGUUAGGAGGUGCAGACACUUGUGGAAUUCUCGGGUGCCAA`, “RBNS enrichment (R)” read 0.417.
`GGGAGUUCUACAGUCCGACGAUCUAGUUAGUUGCCUUUGAUAGAAUUCCUUGCACCUGCCAUUGUUGGUUUGAUGAACACGAUUAGGUACCCAGUGUGAUCCCACCCUCACCCCACCUCACCCAGAGCAAACCUGGAAUUCUCGGGUGCCAA` — result for “RBNS enrichment (R)”: 0.69.

Set 5 — method: protein-binding microarray; molecule type: double-stranded DNA, one strand shown; matrix: in vitro; concentration: 940 nM top; notes: 60-bp whole probe; added: salmon DNA 0.4 mg/ml; baseline: random background probes; reading: higher = stronger binding; all sequences stand within: GCCTAGCAC … GTCTTGATTCGCTTGACGCTGCTG
Target: Interferon regulatory factor 5, full length, phosphomimetic (IRF5, Homo sapiens, UniProt Q13568-2, residues 1-514, S451D/S453D/S456D/S462D)
`GACGGTATCCTTCTCCAGACGTGCTAG`: “fitted relative affinity” 0.705 z-score.
`TCGTTTCCCAAGTTTATACCTGTGCTA`: “fitted relative affinity” 1.19 z-score.
Under “fitted relative affinity”, `GACGATTTAGGGTTTCGAGACGTGCTA` is recorded as 1.46 z-score.
Under “fitted relative affinity”, `GACGATTTCGGTTTCGAGACGTGCTAG` is recorded as 5.12 z-score.
`TTAGGTATCGGTTTCGGTTTGTGCTAG`: “fitted relative affinity” 12.3 z-score.
For `GACGGTATCCTATTCCTGACGTGCTAG`, “fitted relative affinity” read 0.371 z-score.
For `TTAGGTTTCGTCTATCGGTTAGTGCTA`, “fitted relative affinity” read 8.45 z-score.
`TCAAGCCTAAGGTTTAGGACTGTGCTA` — result for “fitted relative affinity”: -0.899 z-score.
Under “fitted relative affinity”, `TTAGGTACCGGTATCGGTTAGTGCTAG` is recorded as 5.27 z-score.
`GACGGTATCGACTATCGGGAAGTGCTA` — result for “fitted relative affinity”: 5.12 z-score.
Under “fitted relative affinity”, `TTAGATCTCAGACTGGAGTAGTGCTAG` is recorded as -0.386 z-score.
For `GACGATCTCAGTATCAAGACGTGCTAG`, “fitted relative affinity” read 0.28 z-score.
`GACGGTTTCTGTATCGGGACGTGCTAG`: “fitted relative affinity” 5.22 z-score.
`TTAGGTAACCTACTGCTTTAGTGCTAG`: “fitted relative affinity” -0.42 z-score.
`TTAGAACTGGGGTTTCGACTAGTGCTA`: “fitted relative affinity” 2.51 z-score.
`CTAGATATCGGGTATCGATTAGTGCTA`: “fitted relative affinity” 3.01 z-score.
`GACGGCTTCGGTTTCGGGACGTGCTAG`: “fitted relative affinity” 3.45 z-score.
`TCAGCTTTGCCTTTTGCACTGTGCTAG` — result for “fitted relative affinity”: 0.0346 z-score.
`GACGGTTTCGTCTATCGGGACGTGCTA`: “fitted relative affinity” 6.9 z-score.

Other studies, line by line
`PhoQ, residues 284 288 289 292 302 303 TYGVAM` gave a fold induction of 7.89 (PhoP, residues 12 14 15 18 19 VQALL (Escherichia coli, UniProt P23836); Sort-seq, measured: YFP reporter; E. coli; PhoQ-PhoP variant library, added: 10 µM Mg2+; baseline: high Mg2+ state, higher = stronger signaling).
